Measured values collected from several papers.
Parts stem from different laboratories: compare values within a part only.

Study 1 — method: protein binding microarray; form: double-stranded DNA, one strand shown; matrix: in vitro; concentration: not given; baseline: not given; direction: higher = stronger binding; measurement: E-score
Target: Histone acetyltransferase KAT6A, winged helix 1, GST fusion (KAT6A, Homo sapiens, UniProt Q92794, residues 1-85)
Setting: 8-mer, flanks averaged, mean of 2 arrays, mostly near background
Construct (chain): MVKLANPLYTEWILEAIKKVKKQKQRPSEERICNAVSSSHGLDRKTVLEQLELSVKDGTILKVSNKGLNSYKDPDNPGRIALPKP
Strand = ATAGAGAT; result = -0.132
Strand = GTGGGAAC; result = -0.161
Strand = CATGTTTA; result = -0.0102
Strand = GTACGAGA; result = -0.107
Strand = ACGCATAT; result = -0.00108
Strand = AGAGAGAT; result = -0.257

Study 2 — method: RNA Bind-n-Seq; form: RNA; matrix: in vitro; concentration: not given; baseline: input RNA pool; direction: higher = stronger binding; measurement: bound/input enrichment
Target: RING finger protein unkempt homolog, zinc fingers 1-6, GST-SBP tag (UNK, Homo sapiens, UniProt Q9C0B0, residues 30-357)
UniProt Q9C0B0, sequence (30-357, looked up): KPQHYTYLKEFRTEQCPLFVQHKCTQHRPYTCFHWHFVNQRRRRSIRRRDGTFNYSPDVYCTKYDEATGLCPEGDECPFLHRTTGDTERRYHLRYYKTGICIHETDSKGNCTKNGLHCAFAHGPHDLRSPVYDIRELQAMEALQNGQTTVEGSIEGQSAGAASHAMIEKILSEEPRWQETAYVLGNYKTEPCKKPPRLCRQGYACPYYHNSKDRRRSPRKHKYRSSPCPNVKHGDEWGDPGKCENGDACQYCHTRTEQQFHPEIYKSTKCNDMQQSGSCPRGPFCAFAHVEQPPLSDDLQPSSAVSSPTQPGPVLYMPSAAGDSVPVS
Setting: RNA with constant flanks, human and mouse sites, ends assumed
All sequences stand within: GGGAGUUCUACAGUCCGACGAUC … CAACAGAGGAUUGAGCAUCA
Strand = UAACUACUCGAAGACGAAUUCUACAGUCACCAGAAGCAAUGGAGCAGUAUUGAUAAAAGUACCCUAUCAGUUAGGACUCAGCUUAACCAUCGUUGCUUACAAAGAUGGCUACGUCUUGAC; result = 0.108 ratio
Strand = UAAUAAUUAGCUAUUUUAUAAAGGUAACGAGAAAAAAUACACUAUGUCUGAUGAAGUUUUUAGCACCACUUUGGCAUAUACAAAGAGUCCAAAAGUUACCAAAAGAACUACUUUCCAGGA; result = 4.92 ratio
Strand = CCAGUUGUAUACAAAUACCUAACAGAGAAAGCAGUAAAAUGGUCACAGCAGGUUGAACGUCAUAGAGAACAUCUCAUUAACUACAUUAUAUUUUUGAGAAUAACACCAUUUCUGCCUAAU; result = 3.06 ratio
Strand = UCUCUAAGAGGAAGACCUUCAAAUUUGGUUCAUACGACAACAGUUAUUAAGAGAGAUUUCUAGUAAUCUUCAGAUGUGAGGUUUUUUUUCUGCCAACAAAAGUCACAUUCAAAUUGUAUU; result = 0.898 ratio
Strand = ACUGGUGGUGCAGCCUCUGUGAAGCAGCACCAUUCAAGUGCCCAUAACAAAGAUAUUGCUUUAGGGGUAUUUGAUGUGGUGGUGACGGACCCCUCAUGCCCAGCCUCGGUGCUGAAGUGU; result = 0.0841 ratio

Study 3 — method: RNA Bind-n-Seq; form: RNA; matrix: in vitro; concentration: 365 nM; baseline: no-protein control; direction: higher = stronger binding; measurement: RBNS enrichment (R)
Target: RNA binding protein fox-1 homolog 2, RRM domain, GST-SBP tag (RBFOX2, Homo sapiens, UniProt O43251-10, residues 100-194)
Setting: natural RNA segment, single round, ends assumed
All sequences stand within: GGGAGUUCUACAGUCCGACGAUC … UGGAAUUCUCGGGUGCCAA
Residues (chain): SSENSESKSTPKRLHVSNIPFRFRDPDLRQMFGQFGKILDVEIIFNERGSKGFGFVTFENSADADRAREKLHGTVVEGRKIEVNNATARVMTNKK
Strand = GAAGUUGACCAGACAAAGCAAAUGGAGGGGCACCUCUGUGUACCCUCUUCACCUAAGUGUUUAUAACCAGCAGUACCCUGCUACAAGCCUUGGGUGCAGCCAUCACUGGA; result = 0.224
Strand = AGAACCUUUCCCCUGUACUUUUCUUUGGCCCCAUUGUUUAAAAGGGGAAAAUGGCCUUUUUAAACCCUGUCAAGCCCAUGAUGGAAGACACCACCUCUGCCAUGCCCUGU; result = 0.657
Strand = CACAGACCCUACAAGACGAUGUUAGGAAACACAUGCUUGCUGGCCUUGAAGGACACAGAGAGAAGUAUGUGUGUGUGGUGUGUUUCCAGCUCUGGCUCCCGAAGGGGCAA; result = 0.852
Strand = CAUCAGCUAUUGAGAUAGGCCUGCUCAGUUAAUAUGGCUUCCUGGCCAGUAGGCAUUCUGUACCAACUUCUAAUAGAAAUGAGGCAAGGACAAACUUGGAUCAAGAGGAC; result = 0.864
Strand = CUUUUGCAGCAUGGAUCAAACAUUGGCUUACUGUGCUAAUGUGUGAAGAGAAAAAAUUCUCUAAAGCAGGUGAGCUUUAAUGAACAAAUGUGUAUUUUAUCUGAGUUUGA; result = 3.06
Strand = GCUCUGCCGUGUUCAGACGUCGGCUACUCCGUGGCUCCACCUGACCUCCGAAUGCUAUUUGCUCCCAGGCCAGCACUGCACUGUCUGGAGGGGGCAGAGACCACAGGAGA; result = 0.568
Strand = ACUCCGAAUUCCAUAUGUAAUAGGAUGCAAGUCUAAGCGUUUCAUGUGGACAUAAAUGUAUCUAAAUAAAACUUUCCCUAGCACUGUGGCUGACCUCACCCUUACUUUUA; result = 0.536

Other studies, line by line
Molecule = PhoQ, residues 284 288 289 292 302 303 SLANKL; target = PhoP, residues 12 14 15 18 19 NHFIF (Escherichia coli, UniProt P23836); assay = Sort-seq, refers to: YFP reporter; system = E. coli; conditions = PhoQ-PhoP variant library, together with: 10 µM Mg2+; how to read = baseline: high Mg2+ state, higher = stronger signaling; measurement = fold induction; result = 1.71

For quick reference, copied from above (study 1):
Strand = GTGGGAAC; result = -0.161
Strand = CATGTTTA; result = -0.0102
